Experimental data of several laboratories.
Each numbered part is a random draw from the data of one study; scales do not carry over between parts. “And” joins repeats or separate records; there may be more than shown.
UniProt P42336, sequence (whole entry, unmodified, looked up): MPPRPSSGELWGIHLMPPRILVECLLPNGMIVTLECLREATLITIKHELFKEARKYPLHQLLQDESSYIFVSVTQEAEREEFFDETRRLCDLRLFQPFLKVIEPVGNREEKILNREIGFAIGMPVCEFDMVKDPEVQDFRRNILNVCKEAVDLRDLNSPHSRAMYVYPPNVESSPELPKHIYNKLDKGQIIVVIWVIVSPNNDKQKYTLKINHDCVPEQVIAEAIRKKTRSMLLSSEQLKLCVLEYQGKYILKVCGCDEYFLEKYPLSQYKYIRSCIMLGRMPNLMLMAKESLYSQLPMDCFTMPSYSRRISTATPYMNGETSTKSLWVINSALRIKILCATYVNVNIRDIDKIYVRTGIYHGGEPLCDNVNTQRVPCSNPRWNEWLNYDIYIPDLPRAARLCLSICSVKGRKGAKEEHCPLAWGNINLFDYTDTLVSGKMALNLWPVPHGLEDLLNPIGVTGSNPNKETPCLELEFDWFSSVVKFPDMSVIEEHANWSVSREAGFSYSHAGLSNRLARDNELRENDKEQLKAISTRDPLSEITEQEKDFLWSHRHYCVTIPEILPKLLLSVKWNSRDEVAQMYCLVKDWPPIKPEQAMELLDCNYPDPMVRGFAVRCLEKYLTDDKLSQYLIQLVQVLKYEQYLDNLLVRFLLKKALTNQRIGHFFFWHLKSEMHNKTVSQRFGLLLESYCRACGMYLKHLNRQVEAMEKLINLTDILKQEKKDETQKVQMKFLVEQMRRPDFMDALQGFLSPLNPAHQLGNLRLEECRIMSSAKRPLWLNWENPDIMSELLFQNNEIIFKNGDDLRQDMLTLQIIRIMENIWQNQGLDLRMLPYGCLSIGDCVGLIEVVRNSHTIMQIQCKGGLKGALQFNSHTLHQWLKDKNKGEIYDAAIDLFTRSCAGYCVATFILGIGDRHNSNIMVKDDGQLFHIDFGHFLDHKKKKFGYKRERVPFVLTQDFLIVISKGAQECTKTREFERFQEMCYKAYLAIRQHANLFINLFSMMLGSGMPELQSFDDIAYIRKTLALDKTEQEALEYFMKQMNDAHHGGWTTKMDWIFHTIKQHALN
UniProt P23458, sequence (whole entry, looked up): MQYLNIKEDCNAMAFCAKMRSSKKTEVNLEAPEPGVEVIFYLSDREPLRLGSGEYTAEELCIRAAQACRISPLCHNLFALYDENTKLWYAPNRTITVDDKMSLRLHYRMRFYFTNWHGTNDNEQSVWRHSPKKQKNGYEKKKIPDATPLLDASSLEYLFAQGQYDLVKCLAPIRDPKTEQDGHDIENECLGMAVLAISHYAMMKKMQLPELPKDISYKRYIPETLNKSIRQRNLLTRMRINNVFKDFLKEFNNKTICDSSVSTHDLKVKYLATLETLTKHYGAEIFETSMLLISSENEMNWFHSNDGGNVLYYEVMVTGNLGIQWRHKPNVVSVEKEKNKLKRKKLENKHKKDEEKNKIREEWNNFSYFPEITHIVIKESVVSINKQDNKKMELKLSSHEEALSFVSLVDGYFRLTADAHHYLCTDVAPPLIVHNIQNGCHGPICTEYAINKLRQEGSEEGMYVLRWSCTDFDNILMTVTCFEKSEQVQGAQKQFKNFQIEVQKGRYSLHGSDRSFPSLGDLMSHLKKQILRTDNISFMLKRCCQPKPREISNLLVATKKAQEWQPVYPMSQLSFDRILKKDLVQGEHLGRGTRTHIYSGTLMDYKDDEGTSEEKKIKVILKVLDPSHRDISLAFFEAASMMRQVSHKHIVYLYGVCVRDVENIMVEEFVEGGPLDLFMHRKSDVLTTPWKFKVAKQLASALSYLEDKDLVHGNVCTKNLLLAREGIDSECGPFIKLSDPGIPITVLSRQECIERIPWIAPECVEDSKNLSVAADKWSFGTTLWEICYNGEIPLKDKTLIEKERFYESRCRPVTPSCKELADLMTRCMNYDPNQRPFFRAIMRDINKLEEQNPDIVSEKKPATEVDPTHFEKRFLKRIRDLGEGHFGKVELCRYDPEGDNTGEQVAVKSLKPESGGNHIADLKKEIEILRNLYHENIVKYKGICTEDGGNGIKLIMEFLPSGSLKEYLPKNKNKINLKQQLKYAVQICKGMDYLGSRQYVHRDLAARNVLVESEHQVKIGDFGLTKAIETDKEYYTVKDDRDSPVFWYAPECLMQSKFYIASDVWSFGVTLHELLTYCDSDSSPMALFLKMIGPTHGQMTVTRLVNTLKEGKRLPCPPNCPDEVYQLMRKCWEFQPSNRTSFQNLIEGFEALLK
UniProt Q6P2M8, sequence (whole entry, looked up): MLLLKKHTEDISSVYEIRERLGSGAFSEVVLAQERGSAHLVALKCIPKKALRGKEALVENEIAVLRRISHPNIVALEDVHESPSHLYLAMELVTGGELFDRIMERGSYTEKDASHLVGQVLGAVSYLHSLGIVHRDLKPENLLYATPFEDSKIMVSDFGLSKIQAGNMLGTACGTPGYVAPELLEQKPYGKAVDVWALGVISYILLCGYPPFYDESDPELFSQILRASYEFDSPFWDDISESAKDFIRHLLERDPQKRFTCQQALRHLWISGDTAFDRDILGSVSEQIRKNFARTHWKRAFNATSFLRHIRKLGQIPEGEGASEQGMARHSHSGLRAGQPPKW

Sample 1 — observed: enzyme activity; mode: inhibitor; tested at: 77 µM; relative to: untreated
Target: DNA polymerase theta, ATPase domain (POLQ, Homo sapiens, UniProt O75417)
UniProt O75417, sequence (whole entry, unmodified, looked up): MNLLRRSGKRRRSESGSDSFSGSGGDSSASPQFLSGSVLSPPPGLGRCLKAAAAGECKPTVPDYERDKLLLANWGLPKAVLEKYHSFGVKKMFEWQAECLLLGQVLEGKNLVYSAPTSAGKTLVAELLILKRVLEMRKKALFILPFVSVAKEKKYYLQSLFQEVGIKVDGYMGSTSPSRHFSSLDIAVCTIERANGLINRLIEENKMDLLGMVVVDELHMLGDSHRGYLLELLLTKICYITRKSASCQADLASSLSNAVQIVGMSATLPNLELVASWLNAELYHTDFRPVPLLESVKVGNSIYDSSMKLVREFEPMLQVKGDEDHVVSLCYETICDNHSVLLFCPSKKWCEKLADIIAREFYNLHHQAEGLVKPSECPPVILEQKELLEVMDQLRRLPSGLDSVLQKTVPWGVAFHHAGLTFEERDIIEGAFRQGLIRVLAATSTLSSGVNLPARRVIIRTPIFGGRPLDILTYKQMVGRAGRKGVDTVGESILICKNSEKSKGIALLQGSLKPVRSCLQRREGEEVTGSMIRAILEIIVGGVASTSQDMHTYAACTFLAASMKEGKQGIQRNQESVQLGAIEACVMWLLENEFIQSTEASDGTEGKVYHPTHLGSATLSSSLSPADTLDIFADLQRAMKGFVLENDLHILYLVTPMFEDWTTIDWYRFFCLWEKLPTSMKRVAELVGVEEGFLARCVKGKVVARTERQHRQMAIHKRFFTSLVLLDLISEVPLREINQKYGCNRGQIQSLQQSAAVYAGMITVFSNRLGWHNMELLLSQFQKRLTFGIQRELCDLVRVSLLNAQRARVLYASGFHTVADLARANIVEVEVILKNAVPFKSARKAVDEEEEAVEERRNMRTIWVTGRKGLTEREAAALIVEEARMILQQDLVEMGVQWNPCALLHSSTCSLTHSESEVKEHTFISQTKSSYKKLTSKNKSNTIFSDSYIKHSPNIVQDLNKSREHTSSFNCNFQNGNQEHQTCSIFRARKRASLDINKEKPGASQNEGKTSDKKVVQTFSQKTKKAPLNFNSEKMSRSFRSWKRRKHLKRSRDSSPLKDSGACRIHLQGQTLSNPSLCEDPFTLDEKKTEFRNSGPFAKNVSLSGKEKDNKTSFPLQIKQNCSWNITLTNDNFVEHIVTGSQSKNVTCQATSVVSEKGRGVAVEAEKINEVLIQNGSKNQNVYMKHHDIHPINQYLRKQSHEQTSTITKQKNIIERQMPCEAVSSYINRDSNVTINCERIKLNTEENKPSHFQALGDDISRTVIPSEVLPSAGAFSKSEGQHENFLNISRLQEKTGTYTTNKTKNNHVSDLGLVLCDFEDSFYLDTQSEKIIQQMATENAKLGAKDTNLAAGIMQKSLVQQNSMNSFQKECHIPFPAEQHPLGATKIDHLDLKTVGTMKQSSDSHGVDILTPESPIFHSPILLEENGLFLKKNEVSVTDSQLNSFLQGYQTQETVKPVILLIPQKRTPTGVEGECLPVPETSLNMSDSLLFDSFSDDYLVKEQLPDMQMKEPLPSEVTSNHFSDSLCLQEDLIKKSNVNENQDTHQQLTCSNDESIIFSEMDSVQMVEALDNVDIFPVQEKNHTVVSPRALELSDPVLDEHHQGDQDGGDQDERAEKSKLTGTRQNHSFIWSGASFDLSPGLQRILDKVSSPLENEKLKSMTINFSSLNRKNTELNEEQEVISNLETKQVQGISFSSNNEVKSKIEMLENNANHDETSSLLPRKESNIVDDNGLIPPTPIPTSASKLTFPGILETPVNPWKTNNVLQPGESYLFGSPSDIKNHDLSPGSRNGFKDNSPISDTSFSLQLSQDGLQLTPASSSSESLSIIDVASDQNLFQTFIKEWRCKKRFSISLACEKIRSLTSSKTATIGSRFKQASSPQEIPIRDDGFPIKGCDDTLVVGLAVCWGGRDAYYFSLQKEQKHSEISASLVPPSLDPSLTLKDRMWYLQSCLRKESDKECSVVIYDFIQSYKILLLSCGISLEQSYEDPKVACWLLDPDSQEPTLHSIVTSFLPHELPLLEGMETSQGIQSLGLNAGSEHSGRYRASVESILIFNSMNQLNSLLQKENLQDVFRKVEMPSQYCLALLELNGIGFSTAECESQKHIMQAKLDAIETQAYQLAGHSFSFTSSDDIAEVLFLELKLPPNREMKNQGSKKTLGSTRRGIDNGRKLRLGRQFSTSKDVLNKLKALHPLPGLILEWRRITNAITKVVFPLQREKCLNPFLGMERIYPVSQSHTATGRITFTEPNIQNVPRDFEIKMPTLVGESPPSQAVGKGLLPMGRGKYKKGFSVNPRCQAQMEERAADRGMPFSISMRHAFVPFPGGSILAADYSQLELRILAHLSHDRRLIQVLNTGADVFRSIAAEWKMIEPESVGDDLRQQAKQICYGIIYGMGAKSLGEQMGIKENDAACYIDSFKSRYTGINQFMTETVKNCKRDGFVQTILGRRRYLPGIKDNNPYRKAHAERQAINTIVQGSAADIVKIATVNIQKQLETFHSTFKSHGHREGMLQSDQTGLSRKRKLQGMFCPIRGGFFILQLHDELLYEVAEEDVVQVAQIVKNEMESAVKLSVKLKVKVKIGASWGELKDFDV
`CN(C)CCCO[C@@H]1[C@H]2OC(C)(C)O[C@H]2O[C@@H]1[C@H](O)CO` gave a remaining activity of 103%.
For `COc1cc(N)c(Cl)cc1C(=O)NC1CCN(Cc2ccccc2)CC1`, the remaining activity was 102%.
`OC[C@H]1O[C@H](O[C@]2(CCl)O[C@H](CCl)[C@@H](O)[C@@H]2O)[C@H](O)[C@@H](O)[C@H]1Cl` gave a remaining activity of 96.8%.
For `CC1=C(C(=O)OC(C)C)C(c2cccc([N+](=O)[O-])c2)C(C(=O)OC2CN(C(c3ccccc3)c3ccccc3)C2)=C(N)N1` (stereo not drawn), the remaining activity was 103%.
For `O=C(O)CP(=O)(O)O`, the remaining activity was 94.3%.
`CC(C)C[C@H](NC(=O)[C@H](O)[C@H](N)Cc1ccccc1)C(=O)O` gave a remaining activity of 102%.
`COc1cc(/C=C/C(=O)N2CCC=CC2=O)cc(OC)c1OC` has a remaining activity of 106%.
`CC[C@H]1OC(=O)[C@H](C)[C@@H](O[C@H]2C[C@@](C)(OC)[C@@H](O)[C@H](C)O2)[C@H](C)[C@@H](O[C@@H]2O[C@H](C)C[C@H](N(C)C)[C@H]2O)[C@](C)(O)C[C@@H](C)C(=O)[C@H](C)[C@@H](O)[C@]1(C)O` has a remaining activity of 104% and 91.3%.
`N[C@@H]1C=CC=C(C(=O)O)C1` gave a remaining activity of 99.3%.
For `Nc1nc(F)nc2c1ncn2[C@@H]1O[C@H](COP(=O)(O)O)[C@@H](O)[C@@H]1O`, the remaining activity was 97.5%.
`NNCCc1ccccc1` has a remaining activity of 104%.
`CCOC(=O)NNc1nncc2ccccc12` gave a remaining activity of 86.2%.
`CC(C)C(=O)c1c(C(C)C)nn2ccccc12` has a remaining activity of 104%.
The remaining activity of `CCc1ccccc1OC[C@@H](O)CN[C@H]1CCc2ccccc2C1` is reported as 106%.
With `NC(=O)CCCSc1nc(N)nc(-c2c(Cl)cc3c4c(cccc24)COC3)n1` the remaining activity was 82.1%.

Sample 2 — method: competition with immobilised ligand; tested at: 1 µM
Structure (SMILES): O=C(O)c1cc(-c2ccc(C3CCNCC3)cc2)c2ccc(-c3ccc(C(F)(F)F)cc3)cc2c1
It gave 100% for remaining binding (PNCK (Homo sapiens, UniProt Q6P2M8); cell-free assay).
It gave 99% for remaining binding (GSK3A (Homo sapiens, UniProt P49840); cell-free assay).
It gave 100% for remaining binding (ACVR2B (Homo sapiens, UniProt Q13705); cell-free assay).
The remaining binding was 100% (BUB1 (Homo sapiens, UniProt O43683); cell-free assay).
The remaining binding was 100% (RIPK2 (Homo sapiens, UniProt O43353); cell-free assay).
The remaining binding was 96% (MAP4K1 (Homo sapiens, UniProt Q92918); cell-free assay).
It gave 100% for remaining binding (STK35 (Homo sapiens, UniProt Q8TDR2); cell-free assay).
FLT3 (Homo sapiens, UniProt P36888, N841I); cell-free assay — remaining binding: 100%.
For BMPR1A (Homo sapiens, UniProt P36894); binding: remaining binding read 100%.
CSNK1G2 (Homo sapiens, UniProt P78368); cell-free assay — remaining binding: 100%.
It gave 100% for remaining binding (PIK3CA (Homo sapiens, UniProt P42336, E545K); cell-free assay).
The remaining binding was 100% (MAPK3 (Homo sapiens, UniProt P27361); cell-free assay).
It gave 100% for remaining binding (PIK3CA (Homo sapiens, UniProt P42336, H1047L); cell-free assay).
SYK (Homo sapiens, UniProt P43405); cell-free assay — remaining binding: 100%.
MAPK6 (Homo sapiens, UniProt Q16659); cell-free assay — remaining binding: 100%.
It gave 100% for remaining binding (EPHA2 (Homo sapiens, UniProt P29317); cell-free assay).
FLT3 (Homo sapiens, UniProt P36888, R834Q); cell-free assay — remaining binding: 100%.
Tyrosine-protein kinase JAK1, JH2 (JAK1, Homo sapiens, UniProt P23458); cell-free assay — remaining binding: 87%.
It gave 100% for remaining binding (CDK9 (Homo sapiens, UniProt P50750); cell-free assay).
The remaining binding was 96% (EPHB6 (Homo sapiens, UniProt O15197); cell-free assay).
CHEK1 (Homo sapiens, UniProt O14757); cell-free assay — remaining binding: 100%.
The remaining binding was 100% (CSNK1G1 (Homo sapiens, UniProt Q9HCP0); cell-free assay).
BRAF (Homo sapiens, UniProt P15056, V600E); cell-free assay — remaining binding: 100%.
For DAPK1 (Homo sapiens, UniProt P53355); cell-free assay: remaining binding read 100%.
PIK3CA (Homo sapiens, UniProt P42336, E545A); cell-free assay — remaining binding: 87%.

Sample 3 — SMILES: Nc1ncnc2c1cnn2-c1ccccc1; observed: enzyme activity; mode: inhibitor; tested at: 0.5 µM; relative to: control
The remaining activity was 96.4% (IGF1R (Homo sapiens, UniProt P08069)).
For CAMKK1 (Homo sapiens, UniProt Q8N5S9): remaining activity read 84.8%.
SIK2 (Homo sapiens, UniProt Q9H0K1) — remaining activity: 99.8%.
The remaining activity was 100% (PAK6 (Homo sapiens, UniProt Q9NQU5)).
For RPS6KA3 (Homo sapiens, UniProt P51812): remaining activity read 95%.
The remaining activity was 103% (TEC (Homo sapiens, UniProt P42680)).
PRKCZ (Homo sapiens, UniProt Q05513) — remaining activity: 96.3%.
For TYRO3 (Homo sapiens, UniProt Q06418): remaining activity read 102%.
The remaining activity was 81.5% (CSNK1E (Homo sapiens, UniProt P49674)).
EPHA6 (Homo sapiens, UniProt Q9UF33) — remaining activity: 83.2%.
The remaining activity was 91.8% (CLK1 (Homo sapiens, UniProt P49759)).
For MAP3K20 (Homo sapiens, UniProt Q9NYL2): remaining activity read 92.5%.
It gave 98.1% for remaining activity (JAK1 (Homo sapiens, UniProt P23458)).
For Cyclin-dependent kinase 2, with cyclin E (CDK2, Homo sapiens, UniProt P24941): remaining activity read 93.9%.
It gave 88.5% for remaining activity (FLT1 (Homo sapiens, UniProt P17948)).
SRPK1 (Homo sapiens, UniProt Q96SB4) — remaining activity: 98.1%.
PAK1 (Homo sapiens, UniProt Q13153) — remaining activity: 94.2%.
For PRKCQ (Homo sapiens, UniProt Q04759): remaining activity read 102%.
For CAMK1 (Homo sapiens, UniProt Q14012): remaining activity read 97.5%.
It gave 98.4% for remaining activity (SGK2 (Homo sapiens, UniProt Q9HBY8)).
The remaining activity was 91.4% (CLK2 (Homo sapiens, UniProt P49760)).

Sample 4 — host: human; medium: microsomes or S9; tested at: 2 µM; time: 0.5 h
`CC(C)(C)OC(=O)N1c2ccccc2[C@H]2OC(=O)C[C@H]21` has a remaining compound of 70.1%.
For `Cc1ccc(S(=O)(=O)Nc2nc(C)cc(=O)[nH]2)cc1`, the remaining compound was 64.1%.
`COc1ccc(-c2nc(-c3nnn4c3COC(c3ccc(C)cc3)C4)no2)cn1` (stereo not drawn) has a remaining compound of 12.7%.
`CCc1ccc(N2C=NS(=O)(=O)c3cccnc32)cc1` has a remaining compound of 48.6%.
`CCOC(=O)C1=C(c2ccccc2)c2cc3c(cc2C1=O)OCO3` gave a remaining compound of 8.94%.
For `COC(=O)c1c(C)n(C(C)=O)c2ccc(NS(=O)(=O)c3cccs3)cc12`, the remaining compound was 50.1%.
`COc1cc(=O)n(C)cc1C(=O)Nc1nc(-c2ccccn2)cs1` gave a remaining compound of 27.6%.
The remaining compound of `c1ccc2c(c1)CCN(c1nc(N3CCOCC3)c3nn[nH]c3n1)C2` is reported as 81%.
`Cc1ccc(C2C(C(=O)NC3CCCCC3)CCC(=O)N2C)cc1` (stereo not drawn) gave a remaining compound of 7.66%.
With `c1cnc2c(c1)OC(Cn1nnc3ncc(-c4ccc(OCC5CCNCC5)cc4)nc31)CN2` (stereo not drawn) the remaining compound was 91.9%.
`Oc1ccc(-c2nc(-c3ccc(F)c(F)c3)no2)cc1Cl` gave a remaining compound of 58.7%.
